# Experimental data collected from several papers.
# Parts stem from different laboratories: compare values within a part only.

# Sample 1
# Target: Prothrombin, mature alpha-thrombin (F2, Homo sapiens, UniProt P00734)
# Method: aptamer microarray, sandwich
# Form: DNA with 2'F-ANA
# Sample: in vitro
# Concentration: 200 nM
# Setting: whole 15-mer aptamer, many near background
# Together with: Cy3 exosite-II aptamer, 400 nM
# Reading: higher = stronger binding
# Oligonucleotide: GGTTGGTGTGGTTGG
Modification,mean fluorescence intensity [a.u.]
2'F-ANA at 1 5 7 11 12 14,43.8
2'F-ANA at 1 2 4 5 6 12 13 14,82
2'F-ANA at 1 4 5 6 8 9 10 13 14,49.2
2'F-ANA at 1 4 5 6 10 11 12 13 14,46.8
2'F-ANA at 6 7 15,492
2'F-ANA at 3 4 6 7 8 10 12 14 15,149
2'F-ANA at 1 2 3 7 9 14 15,73
2'F-ANA at 1 5 6 7 8 10 11 14,48.5
2'F-ANA at 2 8 10,155
2'F-ANA at 1 2 7 11,162
2'F-ANA at 1 2 3 6 8 11 12 14,82.7
2'F-ANA at 4 6 7 11 13 15,146
2'F-ANA at 2 4 8 9 10 12 15,121
2'F-ANA at 1 8 9 10 11 12 13 15,69.4
2'F-ANA at 2 4 5 7 9 10 11 12 13,88.4
2'F-ANA at 1 4 5 6 7 9 13 14 15,45.9
2'F-ANA at 4 6 7 8 13 15,213
2'F-ANA at 1 6 8 9 10 13,47.8
2'F-ANA at 1 8 10 11 15,66.8
2'F-ANA at 1 6 7 8 9 10 11,76.8
2'F-ANA at 6 7 10 12 13 14 15,126
2'F-ANA at 2 3 5 6 7 8 9 11 12 14,74.2
2'F-ANA at 1 2 3 4 5 6 7 9 11 14 15,48.4
2'F-ANA at 2 5 7 10 12 13 14,42.1
2'F-ANA at 5 9 12,172

# Sample 2
# Target: RNA binding protein fox-1 homolog 2, RRM domain, GST-SBP tag (RBFOX2, Homo sapiens, UniProt O43251-10, residues 100-194)
# Method: RNA Bind-n-Seq
# Form: RNA
# Sample: in vitro
# Concentration: 365 nM
# Setting: natural RNA segment, single round, ends assumed
# Relative to: no-protein control
# Reading: higher = stronger binding
# Target sequence (chain): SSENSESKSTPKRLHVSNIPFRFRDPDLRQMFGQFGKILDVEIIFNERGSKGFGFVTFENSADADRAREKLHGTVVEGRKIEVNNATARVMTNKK
Oligonucleotide,RBNS enrichment (R)
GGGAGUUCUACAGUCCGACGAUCCCCAUGCACUGUGCUGCUUCCUGAGCCUGGCCCUGCAUCCUCAUAGAGGUGCCGGGUUCCUAUUGGUUAGUUGGUUGUUUUUCCGUCUGAGUGAAUUUUUGCCAGUCUUGUGGAAUUCUCGGGUGCCAA,0.784
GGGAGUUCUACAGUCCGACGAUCCCUUUUUUCUCUCCUGCUCCAGGCCUCAGCUCCAGUCCGCUUCGGUUAUUGACCUCCUGGGUCCUACUCCACCCUAUCACCUACCCCCGUGACCCCCGGGAUCCCGCCGGUGGAAUUCUCGGGUGCCAA,1.07
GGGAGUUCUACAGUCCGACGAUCUAUUACAAGCUGCAUGUCCUGACCCUCUUUGAAUUAAGUGGACUGUGGCAUGACAUUCUGCAAUACUUUGCUGAAUUGAACACUAUUGUGUCUUAAAUACUUGCACUAAAUGGAAUUCUCGGGUGCCAA,0.723
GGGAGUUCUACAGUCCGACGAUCCCUCGCCACAGGGAAGCACAAGAACCCCCUCCAUCCCGGAGGAUGCAGGACACGAAGCCCCGGGGUGGGCGGGAGGAGGCUGACCUUUUACCUGCGCAUAGACUUUGAUUUGGAAUUCUCGGGUGCCAA,0.529
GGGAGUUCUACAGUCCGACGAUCCUUUGUAAUCUCUGCCUGUGAUUUUCUUUUCUAAAUGACGACUCCGUGUAACCACCUGGACUAAGUUGAGAAGGAAACUGCCAAAUGCUUUGGGUUUUUAGGGUUUUAAUUGGAAUUCUCGGGUGCCAA,0.466
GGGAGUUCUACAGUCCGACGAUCAGAGAGUGUUUGUAGUUCAUGGUUUUUCCCUACCUGCCCGGUUCCUUUCCUGAGGACCCGGCAGAAAUGCAGAACCAUCCAUGGACUGUGAUUCUGAGGCUGCUGAGACUUGGAAUUCUCGGGUGCCAA,0.268
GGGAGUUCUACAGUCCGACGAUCAAUGUUACUGCCAGUCAUAAGUGGCUUUUUAAUUACCAGUUUUCAUUGCACUUCACUCUGUUUUCAGGGGGAUUGGGGACAUUCGGGGAGACUGUAUCUGUCUACUUUGUUGGAAUUCUCGGGUGCCAA,0.365
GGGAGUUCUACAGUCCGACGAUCCUCACCCCUAACCCCCAAUCACAAAGAAAGGUAAUAAAAAUAUAAAUUCCAAGGAUUAGGAAAAGUGGAAUGUUUUUGCCCCUCAAAGUCCACCCCCUAGACAGCAAUGCUGGAAUUCUCGGGUGCCAA,0.625
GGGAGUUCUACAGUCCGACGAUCAGAGAUUUCCUGCUAGAGGAAAGGGGGAAUCUCUGUGCAUCCCAGCGCUGCCUGGAAACUUACCUUCCCACGGCCCAGGACGCAUUUCAUCGAAUGGAAACAUGUUCUUGUGGAAUUCUCGGGUGCCAA,0.638
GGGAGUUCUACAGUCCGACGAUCAUCUUGAUGCUAGGAUGCUCCUGGUACUAACUAAACAUUGGCAGUUCACAUCCCAGACACCAGGGGUCAGGUACUAACUAAAGAGAUGGAAUGCAGUGUGCUUUUUGAGAUGGAAUUCUCGGGUGCCAA,0.585
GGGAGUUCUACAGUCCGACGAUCCAUAAUGUGUUGUGAAAAUUUAAUCUUAAAAAUUAAAUUUUUAAACUAUGUGGGUCUGUGAAUUUCUUUAAUGUCUAAGAAAUCCAGCUUCAUAAUUUCCAUGAUACAAAUGGAAUUCUCGGGUGCCAA,0.683
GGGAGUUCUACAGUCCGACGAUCAGGUAUAUUAGAGCCACUUGAAAGCAUGAAGACCAGUUAUAUGGAAACAGGUUUCUCUCAGUGGCACAUUUUGCUUUUUCUUAGCCCUCAAAUACAUUGCCUCGGCAUGAUGGAAUUCUCGGGUGCCAA,0.811

# Sample 3
# Target: Interferon regulatory factor 3, full length, phosphomimetic (IRF3, Homo sapiens, UniProt Q14653, residues 1-427, S386D/S396D/S398D/S402D/T404D/S405D)
# Chain of UniProt Q14653 (whole entry, unmodified, looked up): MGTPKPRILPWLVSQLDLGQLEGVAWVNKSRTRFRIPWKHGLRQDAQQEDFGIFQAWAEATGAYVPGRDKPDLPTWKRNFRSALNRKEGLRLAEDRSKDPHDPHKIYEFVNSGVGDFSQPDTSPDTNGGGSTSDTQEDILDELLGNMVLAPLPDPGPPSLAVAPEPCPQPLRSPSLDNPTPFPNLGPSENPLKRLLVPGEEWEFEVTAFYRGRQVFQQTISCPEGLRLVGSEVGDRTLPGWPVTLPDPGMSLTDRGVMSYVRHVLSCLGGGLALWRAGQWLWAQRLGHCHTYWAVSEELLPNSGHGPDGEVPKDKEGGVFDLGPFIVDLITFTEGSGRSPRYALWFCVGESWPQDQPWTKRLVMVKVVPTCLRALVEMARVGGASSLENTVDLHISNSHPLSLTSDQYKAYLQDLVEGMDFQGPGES
# Method: protein-binding microarray
# Form: double-stranded DNA, one strand shown
# Sample: in vitro
# Concentration: 2540 nM top
# Setting: 60-bp whole probe
# Together with: salmon DNA 0.4 mg/ml
# Relative to: random background probes
# Reading: higher = stronger binding
# Constant ends, left off below: GCCTAGCAC … GTCTTGATTCGCTTGACGCTGCTG
Oligonucleotide,fitted relative affinity [z-score]
TTAGAGCTGGGGTTTCGATTAGTGCTA,0.884
TTAGGTATCGAGACTGGGTTAGTGCTA,0.146
GCCTCTAGGTTTTCTGGAGACGTGCTA,-0.374
TTCGGTTTCGGTTCCGGTTAGTGCTAG,10.8
TTAGGTATCCACACTGGGTTAGTGCTA,1.63
TTAGGTATCCTACTGCTGTAGTGCTAG,2.58
GTCACATTGTGCAATCTTAATGTGCTA,0.836
GACGAATTGGGGTTTCGAGACGTGCTA,0.641
TCAGGTCTTCACTTGGCACTGTGCTAG,-0.13
TCAAGTTTCACTGCTGCACTGTGCTAG,2.06
TCAGGTTTCCTTCTCCTTTAGTGCTAG,9.65
GCAAACCCCATTCTCAGCCCGTGCTAG,1.12
GACGGGCTGCTTATCCTGACGTGCTAG,-0.744
GACGAACTCGGGTATCGAGACGTGCTA,-0.128
CTTTATGTCCTGTCTACATGGGTGCTA,1.85
GACGGTTTCCTACTGATGACGTGCTAG,4.79
GATGGTTTCGGTTTCGGGACGTGCTAG,11.2
TCATCTTCCTTCATGGCACTGTGCTAG,1.59

# Sample 4
# Target: Histone acetyltransferase KAT6A, winged helix 2, GST fusion (KAT6A, Homo sapiens, UniProt Q92794, residues 85-181)
# Method: protein binding microarray
# Form: double-stranded DNA, one strand shown
# Sample: in vitro
# Concentration: not given
# Setting: 8-mer, flanks averaged, mean of 2 arrays, mostly near background
# Relative to: not given
# Reading: higher = stronger binding
# Residues (chain): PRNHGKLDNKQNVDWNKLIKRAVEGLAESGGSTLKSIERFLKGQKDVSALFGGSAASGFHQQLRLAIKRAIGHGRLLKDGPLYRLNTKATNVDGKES
Oligonucleotide,E-score
GACTAGTA,-0.238
AAGCTACA,0.00538
GATGCTCA,0.0149
ATACCAAT,-0.164
CAAAATTG,-0.0117
AGGGGTCG,-0.138
GCACAGAA,0.107
ATTGTATA,0.0902
ACAGTTGA,-0.169
AGGCTTCG,-0.0694
AAGTACGG,-0.0754
AATGTCAC,0.0795
CCTCAGAC,0.0148
GCCACGAA,0.064
CAGACCGA,0.0269
CTAAGCAG,-0.00073
ACATAATC,-0.253
ACTAAATA,0.0228
AAACGGAA,0.0116
ATCATACC,0.0735
ACGTGAAA,-0.105
AAGGTCCT,-0.0178

# Excerpt of the above (sample 1):
Modification,mean fluorescence intensity [a.u.]
2'F-ANA at 1 4 5 6 7 9 13 14 15,45.9
2'F-ANA at 4 6 7 8 13 15,213
2'F-ANA at 1 6 8 9 10 13,47.8
2'F-ANA at 1 8 10 11 15,66.8
2'F-ANA at 1 6 7 8 9 10 11,76.8
2'F-ANA at 6 7 10 12 13 14 15,126
